Measured values from different studies.
Lines come from different studies, so protocols differ. “And” joins repeats or separate records; there may be more than shown. Numbers after ± are the reported error.

Chains of the proteins cited; added tags and fusions are not shown.
UniProt P50406, whole entry: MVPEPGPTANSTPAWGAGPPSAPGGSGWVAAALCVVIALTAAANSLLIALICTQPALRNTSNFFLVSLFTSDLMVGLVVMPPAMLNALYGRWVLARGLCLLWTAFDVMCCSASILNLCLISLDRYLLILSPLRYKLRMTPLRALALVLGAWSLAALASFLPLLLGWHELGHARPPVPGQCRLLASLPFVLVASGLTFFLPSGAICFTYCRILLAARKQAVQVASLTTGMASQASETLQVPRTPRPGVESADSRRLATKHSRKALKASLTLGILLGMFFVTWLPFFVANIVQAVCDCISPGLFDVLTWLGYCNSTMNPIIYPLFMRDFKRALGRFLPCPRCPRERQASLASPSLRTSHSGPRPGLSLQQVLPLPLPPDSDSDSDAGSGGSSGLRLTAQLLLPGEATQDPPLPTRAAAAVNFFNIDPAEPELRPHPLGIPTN

SMILES	target or system	test	system	conditions	quantity	result
C[C@H](CS)C(=O)N[C@H](Cc1c[nH]c2ccccc12)C(=O)O	Klebsiella pneumoniae		IMP-1 producing	50 µM, together with: meropenem	MIC of meropenem	0.125 µg/mL
COc1cc(F)c2c(=O)c3ccc(Oc4ccc(OC(F)(F)F)cc4)cc3[nH]c2c1	Toxoplasma gondii	parasite growth, beta-galactosidase reporter	HFF, RH	3 days	EC50	0.17 nM
NCc1ccc(-c2ncc(OCC3CCNCC3)nc2-c2ccc(-c3ccoc3)cc2)cc1	Zika virus		U87, FLR	600 nM, 48 h	infectious virus reduction	90%
CN1CC[C@H](c2c(O)cc(O)c3c(=O)cc(-c4ccc(O)cc4)oc23)[C@H](O)C1	HIV-1	viral replication	HeLa-CD4-LTR/β-gal, LAI		EC50	> 3000 nM
NC[C@@H](NC[C@@H]1CCCN1C[C@@H](CO)NC[C@@H](NCCC1CC2CCC1C2)c1ccccc1)c1ccccc1 (stereo partly shown)	Klebsiella pneumoniae	bacterial growth		24 µM, fold shift of IC50, together with: amikacin	potentiation of amikacin	3.3 fold
COc1ccc(CN[C@@H]2CO[C@H](C(c3ccccc3)c3ccccc3)C[C@H]2O)cc1	5-hydroxytryptamine receptor 6 (HTR6, Homo sapiens, UniProt P50406)	radioligand binding		10 µM, together with: [3H]LSD	inhibition	8.7%
C/C(=C\C=C\[C@@H](C)[C@H]1CC[C@@]2(C)[C@@H]3CC[C@H]4C(C)(C)[C@@H](O[C@@H]5O[C@H](CO)[C@@H](O)[C@H](O)[C@H]5O[C@@H]5O[C@H](CO)[C@@H](O)[C@H](O)[C@H]5O[C@@H]5O[C@@H](C)[C@H](O)[C@@H](O)[C@H]5O)CC[C@@]45C[C@@]35CC[C@]12C)C(=O)N[C@@H]1C(=O)O[C@H](C)[C@@H]1C	Trypanosoma brucei brucei	Alamar Blue	trypomastigote		IC50	8800 nM
COc1cc(CC#Cc2c(C)nc(N)nc2N)cc(OC)c1OC	Candida glabrata	Alamar Blue			MIC	20 µg/mL
CN1CC[C@H](c2c(O)cc(O)c3c(=O)cc(-c4cnccc4Cl)oc23)[C@H](O)C1	HIV-1	viral replication	HeLa-CD4-LTR/β-gal, LAI		EC50	> 1000 nM
CN1CC[C@]23c4c5ccc(O)c4O[C@H]2c2ncc(-c4ccc(Cl)cc4)cc2C[C@@]3(OCCCc2ccccc2)[C@H]1C5		tolerance	CD-1 mouse, chemotherapy-induced neuropathy	sc, 1 mg/kg twice daily, 4 days	days to zero efficacy	2.3 days
CC(C)(NC(=O)Nc1ccc(Cl)cc1)c1cccc(C(=N)NO)c1	Staphylococcus aureus		Smith, RPMI medium	together with: 1 mM guanosine	MIC	28 ± 4 µM
C/C(=C\C=C\[C@@H](C)[C@H]1CC[C@@]2(C)[C@@H]3CC[C@H]4C(C)(C)[C@@H](O[C@@H]5O[C@H](CO)[C@@H](O[C@@H]6O[C@H](CO)[C@@H](O)[C@H](O)[C@H]6O)[C@H](O)[C@H]5O[C@@H]5O[C@H](CO)[C@@H](O)[C@H](O)[C@H]5O[C@@H]5O[C@@H](C)[C@H](O)[C@@H](O)[C@H]5O)CC[C@@]45C[C@@]35CC[C@]12C)C(=O)N[C@@H]1C(=O)O[C@H](C)[C@@H]1C (single isomer, unassigned)	Trypanosoma brucei brucei	Alamar Blue	trypomastigote		IC90	3560 nM
CC(C)(NC(=O)Nc1ccc(Cl)c(-c2nc(C(F)(F)F)cs2)c1)c1cccc(C(N)=NO)c1	Staphylococcus aureus		Smith, RPMI medium	together with: 1 mM guanosine	MIC	> 40 µM
CO[C@H]1[C@H](O[C@H]([C@H]2O[C@@H](n3ccc(=O)[nH]c3=O)[C@H](O)[C@@H]2O)[C@H](NCCCNC(=O)[C@@H](NC(=O)[C@@H](NC(=O)N[C@H](C(=O)O)C(C)C)[C@@H]2CCNC(=N)N2)[C@@H](OC(=O)CCCCCCCCCCCCNC(=N)N)C(C)C)C(N)=O)O[C@H](CN)[C@H]1O	Enterococcus faecium	alamar blue	NR-32065		MIC90	15 ± 0.235 µg/mL
CN1CC[C@H](c2c(O)cc(O)c3c(=O)cc(-c4ccc(F)cc4)oc23)[C@H](O)C1	HIV-1	viral replication	HeLa-CD4-LTR/β-gal, LAI		EC50	11.7 nM
N#Cc1ccc(S(=O)(=O)NCc2cn(CB(O)O)nn2)cc1	Klebsiella pneumoniae		KPC-producing	10 µg/mL, together with: cefepime	MIC of cefepime	4 µg/mL
CO[C@H]1[C@H](O[C@H]([C@H]2O[C@@H](n3ccc(=O)[nH]c3=O)[C@H](O)[C@@H]2O)[C@H](NCCCNC(=O)[C@@H](NC(=O)[C@@H](NC(=O)N[C@H](C(=O)O)C(C)C)[C@@H]2CCNC(=N)N2)[C@@H](OC(=O)CCCCCCCCCCCCN(O)C(=N)N)C(C)C)C(N)=O)O[C@H](CN)[C@H]1O	Aspergillus fumigatus	alamar blue			MIC50	> 35 µg/mL
CC(CCN[C@H](CN[C@H](CO)CN1CCC[C@H]1CN[C@H](CN)c1ccccc1)c1ccccc1)c1ccccc1 (stereo partly shown)	Escherichia coli	bacterial growth		24 µM, fold shift of IC90, together with: amikacin	potentiation of amikacin	3.7 fold
Nc1nc(N)c2c(Cl)c(CNc3ccc(C(=O)O)cc3)ccc2n1	Mycobacterium tuberculosis	intracellular growth	THP-1		MIC90	0.05 µM
C=C(C)c1cccc(C(C)(C)NC(=O)Nc2ccc(Cl)c(N)c2)c1	Staphylococcus aureus		Smith, RPMI medium	together with: no guanosine	MIC	1.7 µM
COC(C)(C)Cn1cc(-c2ccc3cc(OC4CC4)ccc3c2)c2c(N)ncnc21	Cryptosporidium parvum	parasite growth	HCT-8		EC50	1820 nM and < 2000 nM
NCCNCCSc1ccccc1		ultrafiltration	mouse plasma, female	12.5 µg/mL, 60 min, 37 °C	unbound concentration	9770 ± 460 ng/mL

Some of these lines once more:
SMILES	target or system	test	system	conditions	quantity	result
COc1cc(CC#Cc2c(C)nc(N)nc2N)cc(OC)c1OC	Candida glabrata	Alamar Blue			MIC	20 µg/mL
CC(CCN[C@H](CN[C@H](CO)CN1CCC[C@H]1CN[C@H](CN)c1ccccc1)c1ccccc1)c1ccccc1 (stereo partly shown)	Escherichia coli	bacterial growth		24 µM, fold shift of IC90, together with: amikacin	potentiation of amikacin	3.7 fold
CC(C)(NC(=O)Nc1ccc(Cl)cc1)c1cccc(C(=N)NO)c1	Staphylococcus aureus		Smith, RPMI medium	together with: 1 mM guanosine	MIC	28 ± 4 µM
